Published values collected from several papers.
Each line is one published result; not all experiments were run side by side. ± marks the error that the study gave.

SMILES | target or system | test | system | setting | scale | measurement | value
CC(C)[C@H](N)C(=O)OCCOCn1cnc2c(=O)nc(N)[nH]c21 | PEPT1 (human) | – | HeLa expressing hPEPT1 | concentration not given | baseline: hPEPT1 over parental HeLa | uptake ratio | > 25
Nc1nc2[nH]c(Cc3ccc(C(=O)N[C@@H](CCC(=O)O)C(=O)O)cc3)cc2c(=O)[nH]1 | folate receptor alpha, human | – | RT16 cells | concentration not given, 15 min, 0 °C, together with: [3H]folic acid 50 nM | baseline: folic acid, higher = stronger binding | relative binding affinity | < 0.01
CCOC(=O)c1ccc(N)cc1 | voltage-gated Na+ channel | ion current, blocker, whole-cell patch clamp | GH3 (rat) | holding potential -70 mV | – | Kd | ~1300 µM
O=P(O)(O)O[C@@H]1[C@H](O)[C@H](O)[C@@H](OP(=O)(O)O)[C@H](OP(=O)(O)O)[C@H]1O | InsP3 receptor 2-1-2 chimera, rat | channel opening, agonist, planar lipid bilayer | – | 0 mV, together with: 200 nM free Ca2+ | – | EC50 | 0.0139 ± 0.038 µM
NCC[C@@H]1NC(=O)c2coc(n2)-c2coc(n2)-c2cccc(c2)-c2cccc(c2)-c2nc(co2)-c2nc(co2)CNC1=O | salmon testes duplex DNA | UV melting | – | 15 µM, pH 7.5, together with: 50 mM K+ | baseline: DNA without compound | melting temperature shift | 2.9 °C
C#C[C@]1(COP(=O)(O)OP(=O)(O)OP(=O)(O)O)O[C@@H](n2cnc3c(N)nc(F)nc32)C[C@@H]1O | human PBMC tumour model | – | host not given, plasma | oral, 15 mg, single dose, fasted | – | half-life | 161 h
CC1(C)C=Cc2c(O)cc(/C=C/c3ccc(O)cc3)cc2O1 | NF-κB (human) | reporter gene, inhibitor | SW1353 | together with: PMA | – | IC50 | > 25 µg/mL
CSCC[C@H](NC(=O)[C@H](CCCNC(=N)N)NC(=O)[C@H](Cc1ccc(O)cc1)NC(=O)[C@@H]1CCCN1C(=O)CNC(=O)[C@H](CCC(=O)O)NC(=O)[C@H](CC(=O)O)NC(=O)[C@H](CCCCN)NC(=O)[C@H](CCCCN)NC(=O)[C@H](CCC(=O)O)NC(=O)[C@H](C)N)C(=O)N[C@@H](CCC(=O)O)C(=O)N[C@@H](Cc1c[nH]cn1)C(=O)N[C@@H](Cc1ccccc1)C(=O)N[C@@H](CCCNC(=N)N)C(=O)N[C@@H](Cc1c[nH]c2ccccc12)C(=O)NCC(=O)N[C@@H](CO)C(=O)N1CCC[C@H]1C(=O)N1CCC[C@H]1C(=O)N[C@@H](CCCCN)C(=O)N[C@@H](CC(=O)O)C(=O)O | melanocortin 4 receptor (dog) | cAMP generation, agonist | HEK-293T transfected | 1 h, 37 °C | – | EC50 | 0.00226 ± 0.00075 µM
CC(C)[C@H](N)C(=O)O | Na+-independent amino acid transport, mouse | inhibitor | Ehrlich ascites cells | 1 min, pH 7.4, Na+-free choline medium, together with: methionine | – | Ki | 600 µM
N=C(N)NC(=O)c1nc(Cl)c(N)nc1N | stretch-activated cation channel, rat | ion current, outside-out patch clamp | rat astrocytes | 20 µM, holding -50 mV, pressure-activated | – | SAC current | no effect
O=C(/C=C/c1ccc(Cn2cc(Cn3cnc4cc(Br)ccc4c3=O)nn2)cc1)NO | HDAC | enzyme activity, inhibitor, fluorogenic | HeLa nuclear extract | 30 min, 37 °C | – | IC50 | 0.36 µM
CC(C)=CCC/C(C)=C/Cc1c(O)cc(/C=C/c2ccc(O)cc2O)cc1O | NF-κB (human) | reporter gene, inhibitor | SW1353 | together with: PMA | – | IC50 | 22.5 µg/mL
COc1ccc(S(=O)(=O)NCc2ccc(CNS(=O)(=O)c3ccc(OC)cc3)cc2)cc1 | CXCR4 | CXCL12-induced cell invasion, Matrigel invasion | MDA-MB-231 | 10 nM (0.01 µM), together with: CXCL12 200 ng/mL | baseline: reference compound as 100% | inhibition | 95%
CN(C)CC[C@@H]1NC(=O)c2coc(n2)-c2coc(n2)-c2cccc(c2)-c2cccc(c2)-c2nc(co2)-c2nc(co2)CNC1=O | salmon testes duplex DNA | UV melting | – | 15 µM, pH 7.5, together with: 50 mM K+ | baseline: DNA without compound | melting temperature shift | 0.9 °C
CN(C)c1ccc(-c2cc3ccccc3[nH]2)cc1 | HEK293 | cell growth or viability | – | 50 µM | – | viability | 74.6%
Cc1ccc(NC(=O)c2ccc(CN3CCN(C)CC3)cc2)cc1Nc1nccc(-c2cncc(-c3oncc3C)c2)n1 | – | – | mild-to-moderate Parkinson's disease patients | oral, 50 mg once daily, pre-dose baseline, on anti-Parkinson medication | direction not given | PDQ-39 score | 16.4 ± 10.1
CCCCOc1cc(CC2CNC(=O)N2)ccc1OC (stereo not shown) | phosphodiesterase 4, human | enzyme activity, inhibitor | HEK293 expressing CNG channel C460W/E583M | together with: forskolin 0.5 µM | – | Ki | 0.13 ± 0.02 µM
CN(Cc1ccccc1)S(=O)(=O)c1ccc(Cn2cccc2)cc1 | CXCR4 | CXCL12-induced cell invasion, Matrigel invasion | MDA-MB-231 | 10 nM (0.01 µM), together with: CXCL12 200 ng/mL | baseline: reference compound as 100% | inhibition | 32%
Oc1ccc(/C=C/c2cccc(O)c2)cc1 | NF-κB (human) | reporter gene, inhibitor | SW1353 | together with: PMA | – | IC50 | > 25 µg/mL
CN(C)CCc1cc2cc(c1)CNC(=O)c1coc(n1)-c1coc(n1)-c1cccc(n1)-c1nc(co1)-c1nc(co1)C(=O)NC2 | salmon testes duplex DNA | UV melting | – | 15 µM, pH 7.5, together with: 50 mM K+ | baseline: DNA without compound | melting temperature shift | 0.5 °C

SMILES | target or system | test | system | setting | scale | measurement | value
Nc1nc2c(nc(Br)n2[C@@H]2O[C@@H]3COP(=O)(O)O[C@H]3[C@H]2O)c(=O)[nH]1 | cone cGMP-gated channel | ion current, agonist, inside-out patch clamp | – | after EDTA/EGTA exposure, -40 mV | – | EC50 | 15.5 µM
O=C1c2c(O)ccc(O)c2C(=O)c2c(NCCNCCO)ccc(NCCNCCO)c21 | vasopressin V2 receptor L83Q (human) | agonist | cells with inducible mutant V2R, gene off | 36 h, counter screen, together with: doxycycline 1 µg/mL | – | EC50 | ~2 µM
CCCCC(CC)COC(=O)c1ccccc1C(=O)OCC(CC)CCCC (stereo not shown) | PPARγ | reporter gene, agonist | HEK293H GeneBLAzer PPARγ-UAS-bla | 22 h | baseline: rosiglitazone | EC10 | > 14 µM
CC(C)[C@H](NC(=O)[C@@H]1CCCN1C(=O)[C@H](CCCNC(=N)N)NC(=O)[C@H](CS)NC(=O)[C@H](Cc1c[nH]c2ccccc12)NC(=O)[C@H](CCCNC(=N)N)NC(=O)[C@@H](Cc1ccccc1)NC(=O)[C@H](Cc1c[nH]cn1)NC(=O)[C@H](CCC(=O)O)NC(=O)[C@H](CS)NC(=O)[C@H](CS)NC(=O)[C@H](CCCCN)NC(=O)[C@@H]1CC(=O)N[C@@H](CCCNC(=N)N)C(=O)N[C@@H](C)C(=O)N[C@@H](CC(=O)O)C(=O)N[C@H](Cc2ccc(O)cc2)C(=O)N1)C(N)=O [technetium-99m labelled] | – | – | C57 mice, brain | intravenous, 0.037 MBq, 24 h | – | tissue uptake | 0.02 ± 0.01 %ID/g
CC(C)(C)OC(=O)NCC[C@@H]1NC(=O)c2coc(n2)-c2coc(n2)-c2cccc(c2)-c2cccc(c2)-c2nc(co2)-c2nc(co2)CNC1=O | salmon testes duplex DNA | UV melting | – | 15 µM, pH 7.5, together with: 50 mM K+ | baseline: DNA without compound | melting temperature shift | 0.1 °C
CN(Cc1ccccc1)S(=O)(=O)c1ccc(CN2CCOCC2)cc1 | CXCR4 | CXCL12-induced cell invasion, Matrigel invasion | MDA-MB-231 | 10 nM (0.01 µM), together with: CXCL12 200 ng/mL | baseline: reference compound as 100% | inhibition | 0%
CC(C)[C@@H]1NC(=O)c2coc(n2)-c2coc(n2)-c2cccc(c2)-c2cccc(c2)-c2nc(co2)-c2nc(co2)CNC1=O | salmon testes duplex DNA | UV melting | – | 15 µM, pH 7.5, together with: 50 mM K+ | baseline: DNA without compound | melting temperature shift | 0 °C
CCN(CC)Cc1ccc(S(=O)(=O)N(C)Cc2ccc(F)cc2)cc1 | CXCR4 | CXCL12-induced cell invasion, Matrigel invasion | MDA-MB-231 | 10 nM (0.01 µM), together with: CXCL12 200 ng/mL | baseline: reference compound as 100% | inhibition | 61%
O=C1N[C@@H](Cc2ccccc2)C(=O)NCc2coc(n2)-c2coc(n2)-c2cccc(c2)-c2cccc(c2)-c2nc(co2)-c2nc1co2 | salmon testes duplex DNA | UV melting | – | 15 µM, pH 7.5, together with: 150 mM K+ | baseline: DNA without compound | melting temperature shift | -0.4 °C
CC(C)S(=O)(=O)N1CCC(NC(=O)NC23CC4CC(CC(C4)O2)C3)CC1 | IL-6, TNF-alpha, CHOP, TRB3 | – | AR-42J | 60 µM, together with: cerulein 10 nM | baseline: cerulein alone | mRNA level | decreased
CN(Cc1ccccc1)S(=O)(=O)c1ccc(CNCc2ccccn2)cc1 | CXCR4 | CXCL12-induced cell invasion, Matrigel invasion | MDA-MB-231 | 100 nM (0.1 µM), together with: CXCL12 200 ng/mL | baseline: reference compound as 100% | inhibition | 72%
Cc1cccc(C)c1NC(=O)C1CCCN(Cc2ccccc2)C1 (stereo not shown) | Nav1.4, Pelophylax lessonae | sodium current, use-dependent blocker, vaseline gap voltage clamp | skeletal muscle fibres | 10 Hz pulse trains | – | IC50 | 4.5 ± 0.3 µM
CC(C)[C@@H]1NC(=O)c2coc(n2)-c2coc(n2)-c2coc(n2)[C@H](CCN(C)C)NC(=O)c2coc(n2)-c2coc(n2)-c2coc1n2 | salmon testes duplex DNA | UV melting | – | 15 µM, pH 7.5, together with: 150 mM K+ | baseline: DNA without compound | melting temperature shift | 0.6 °C
C=C[C@@]1(C)CC(=O)[C@]2(O)[C@@]3(C)[C@@H](O)CCC(C)(C)[C@@H]3[C@H](O)[C@H](OC(C)=O)[C@@]2(C)O1 | RXFP3 (human) | cAMP level, agonist | HEK-RXFP3 cells | – | approximate | EC50 | ~0.5 µM
c1ccc(C2Cc3ccccc3N2)cc1 (stereo not shown) | HEK293 NF-κB luciferase reporter | reporter gene, measured: NF-κB | – | 50 µM, 6 h, together with: TNFα | – | inhibition | 65 ± 4.1%
O=C1CNC(=O)c2coc(n2)-c2coc(n2)-c2cccc(c2)-c2cccc(c2)-c2nc(co2)-c2nc(co2)CN1 | salmon testes duplex DNA | UV melting | – | 15 µM, pH 7.5, together with: 150 mM K+ | baseline: DNA without compound | melting temperature shift | 0.6 °C
CN(Cc1ccccc1)S(=O)(=O)c1ccc(CN2CCCCC2)cc1 | CXCR4 | CXCL12-induced cell invasion, Matrigel invasion | MDA-MB-231 | 10 nM (0.01 µM), together with: CXCL12 200 ng/mL | baseline: reference compound as 100% | inhibition | 94%
COCc1nn2c(CN3C[C@@H](CC(F)(F)Cl)CC3=O)c(C(F)(F)F)nc2s1 | GABAA receptor, rat, native | GABA current, positive modulator, whole-cell patch clamp | rat primary cortical neurons | together with: GABA 2 µM | – | EC50 | 0.208 µM
CN(Cc1ccccc1)S(=O)(=O)c1ccc(CN2CCCC2)cc1 | CXCR4 | CXCL12-induced cell invasion, Matrigel invasion | MDA-MB-231 | 100 nM (0.1 µM), together with: CXCL12 200 ng/mL | baseline: reference compound as 100% | inhibition | 95 to 100%
CC(C)(C)c1cc(C(C)(C)C)c(NC(=O)c2c[nH]c3ccccc3c2=O)cc1O | CFTR S549N human | short-circuit current, potentiator | CFBE | 14.44 µM, together with: forskolin 20 µM | baseline: PKA-activated wild type | CFTR activity | 48.5 ± 6.7%

Excerpt of the above:
SMILES | target or system | test | system | setting | scale | measurement | value
C=C[C@@]1(C)CC(=O)[C@]2(O)[C@@]3(C)[C@@H](O)CCC(C)(C)[C@@H]3[C@H](O)[C@H](OC(C)=O)[C@@]2(C)O1 | RXFP3 (human) | cAMP level, agonist | HEK-RXFP3 cells | – | approximate | EC50 | ~0.5 µM
c1ccc(C2Cc3ccccc3N2)cc1 (stereo not shown) | HEK293 NF-κB luciferase reporter | reporter gene, measured: NF-κB | – | 50 µM, 6 h, together with: TNFα | – | inhibition | 65 ± 4.1%
O=C1CNC(=O)c2coc(n2)-c2coc(n2)-c2cccc(c2)-c2cccc(c2)-c2nc(co2)-c2nc(co2)CN1 | salmon testes duplex DNA | UV melting | – | 15 µM, pH 7.5, together with: 150 mM K+ | baseline: DNA without compound | melting temperature shift | 0.6 °C
CN(Cc1ccccc1)S(=O)(=O)c1ccc(CN2CCCCC2)cc1 | CXCR4 | CXCL12-induced cell invasion, Matrigel invasion | MDA-MB-231 | 10 nM (0.01 µM), together with: CXCL12 200 ng/mL | baseline: reference compound as 100% | inhibition | 94%
COCc1nn2c(CN3C[C@@H](CC(F)(F)Cl)CC3=O)c(C(F)(F)F)nc2s1 | GABAA receptor, rat, native | GABA current, positive modulator, whole-cell patch clamp | rat primary cortical neurons | together with: GABA 2 µM | – | EC50 | 0.208 µM
CN(Cc1ccccc1)S(=O)(=O)c1ccc(CN2CCCC2)cc1 | CXCR4 | CXCL12-induced cell invasion, Matrigel invasion | MDA-MB-231 | 100 nM (0.1 µM), together with: CXCL12 200 ng/mL | baseline: reference compound as 100% | inhibition | 95 to 100%
